Experimental data from different studies.
Compare with care: the assays were run in different laboratories. “And” joins repeats or separate records; there may be more than shown. ± marks the error that the study gave.
UniProt P06239, sequence (whole entry, looked up): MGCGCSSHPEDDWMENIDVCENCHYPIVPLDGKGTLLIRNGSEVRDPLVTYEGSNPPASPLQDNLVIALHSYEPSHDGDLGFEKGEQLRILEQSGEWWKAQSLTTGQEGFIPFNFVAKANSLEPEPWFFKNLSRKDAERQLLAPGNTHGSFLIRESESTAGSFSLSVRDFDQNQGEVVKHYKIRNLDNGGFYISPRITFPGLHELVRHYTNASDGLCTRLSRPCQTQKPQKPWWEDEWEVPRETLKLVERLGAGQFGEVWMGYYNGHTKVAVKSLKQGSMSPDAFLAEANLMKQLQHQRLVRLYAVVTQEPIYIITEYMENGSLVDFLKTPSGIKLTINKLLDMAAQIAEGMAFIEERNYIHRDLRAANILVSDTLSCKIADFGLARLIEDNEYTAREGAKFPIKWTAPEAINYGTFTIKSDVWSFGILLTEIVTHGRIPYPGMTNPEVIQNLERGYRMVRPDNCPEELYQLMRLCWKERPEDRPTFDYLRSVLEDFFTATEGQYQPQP
UniProt P10721, sequence (whole entry, looked up): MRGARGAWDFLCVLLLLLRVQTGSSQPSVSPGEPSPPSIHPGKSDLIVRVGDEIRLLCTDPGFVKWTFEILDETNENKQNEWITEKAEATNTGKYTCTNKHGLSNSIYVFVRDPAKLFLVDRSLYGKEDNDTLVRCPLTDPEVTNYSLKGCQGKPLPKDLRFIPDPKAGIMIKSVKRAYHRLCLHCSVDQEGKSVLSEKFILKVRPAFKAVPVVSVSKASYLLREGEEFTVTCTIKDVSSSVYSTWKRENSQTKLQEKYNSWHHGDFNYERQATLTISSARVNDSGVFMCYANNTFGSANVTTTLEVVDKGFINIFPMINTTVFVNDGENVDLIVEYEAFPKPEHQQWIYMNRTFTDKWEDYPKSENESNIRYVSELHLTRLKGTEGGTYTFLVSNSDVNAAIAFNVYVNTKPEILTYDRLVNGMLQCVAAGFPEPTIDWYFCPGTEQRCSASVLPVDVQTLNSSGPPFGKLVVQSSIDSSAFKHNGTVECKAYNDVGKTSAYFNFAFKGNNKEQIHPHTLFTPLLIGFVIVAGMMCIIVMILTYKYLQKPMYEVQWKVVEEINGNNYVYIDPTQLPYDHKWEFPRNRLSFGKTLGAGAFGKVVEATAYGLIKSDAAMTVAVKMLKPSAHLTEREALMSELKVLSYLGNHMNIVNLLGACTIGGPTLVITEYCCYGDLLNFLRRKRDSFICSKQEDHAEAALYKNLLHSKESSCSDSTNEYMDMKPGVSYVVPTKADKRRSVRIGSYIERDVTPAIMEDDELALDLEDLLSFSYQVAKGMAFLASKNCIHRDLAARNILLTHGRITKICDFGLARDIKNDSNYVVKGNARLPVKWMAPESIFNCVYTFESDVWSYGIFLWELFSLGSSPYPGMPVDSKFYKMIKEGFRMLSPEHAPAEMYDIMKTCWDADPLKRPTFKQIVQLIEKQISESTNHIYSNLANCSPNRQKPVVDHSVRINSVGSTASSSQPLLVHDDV
UniProt O75582, sequence (whole entry, looked up): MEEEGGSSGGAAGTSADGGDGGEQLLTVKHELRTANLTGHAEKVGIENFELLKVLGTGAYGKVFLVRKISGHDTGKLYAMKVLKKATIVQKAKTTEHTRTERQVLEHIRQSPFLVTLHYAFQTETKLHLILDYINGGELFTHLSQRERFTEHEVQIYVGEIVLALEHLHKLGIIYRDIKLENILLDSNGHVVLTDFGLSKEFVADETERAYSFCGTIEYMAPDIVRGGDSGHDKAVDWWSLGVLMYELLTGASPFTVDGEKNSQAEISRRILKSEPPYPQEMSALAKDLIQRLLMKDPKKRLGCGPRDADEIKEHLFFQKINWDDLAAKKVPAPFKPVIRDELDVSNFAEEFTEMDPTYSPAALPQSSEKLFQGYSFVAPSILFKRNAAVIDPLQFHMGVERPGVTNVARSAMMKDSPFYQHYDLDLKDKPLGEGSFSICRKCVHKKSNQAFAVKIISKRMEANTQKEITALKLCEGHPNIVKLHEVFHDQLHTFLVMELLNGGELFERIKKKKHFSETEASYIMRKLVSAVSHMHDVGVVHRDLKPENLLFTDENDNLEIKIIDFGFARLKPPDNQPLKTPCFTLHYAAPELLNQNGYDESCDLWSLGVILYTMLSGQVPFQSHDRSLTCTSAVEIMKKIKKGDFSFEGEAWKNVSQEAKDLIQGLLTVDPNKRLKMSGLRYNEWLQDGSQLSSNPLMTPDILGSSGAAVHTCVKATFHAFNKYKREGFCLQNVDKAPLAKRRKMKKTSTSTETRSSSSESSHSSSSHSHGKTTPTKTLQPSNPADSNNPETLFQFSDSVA

| Structure (SMILES) | target or system | test | system | conditions | scale | endpoint | result |
| --- | --- | --- | --- | --- | --- | --- | --- |
| COc1cnc2cccc(N3CCc4c(cc(Cn5ccnc5)cc4-c4cn(C)nc4C(F)(F)F)C3=O)c2c1 |  |  | CD-1 mice | intraperitoneal, 100 mg/kg once daily, day 2 |  | body weight | 28.4 ± 0.6 g |
| CC[C@H](C)[C@H](NC(=O)CNC(=O)[C@H](CCSC)NC(=O)[C@H](CCC(N)=O)NC(=O)[C@H](C)NC(=O)[C@H](CCC(N)=O)NC(=O)[C@@H](NC(=O)[C@H](CC(C)C)NC(=O)[C@H](C)NC(=O)[C@H](CO)NC(=O)[C@H](CCSC)NC(=O)[C@H](CCC(=O)O)NC(=O)[C@H](CC(C)C)NC(=O)[C@H](Cc1ccc(O)cc1)NC(=O)[C@H](CO)NC(=O)[C@H](CCC(=O)O)NC(=O)[C@H](CCC(N)=O)NC(=O)[C@H](CCCNC(=N)N)NC(=O)[C@H](CCCCN)NC(=O)[C@H](CC(=O)O)NC(=O)[C@H](CC(C)C)NC(=O)[C@H](CC(N)=O)NC(=O)[C@H](Cc1ccccc1)NC(=O)[C@H](CCC(=O)O)NC(=O)[C@H](CCCCN)NC(=O)[C@@H](NC(=O)[C@H](CC(C)C)NC(=O)[C@H](CCC(=O)O)NC(=O)[C@H](CCC(=O)O)NC(=O)[C@@H](NC(=O)[C@@H](NC(=O)[C@H](CCCNC(=N)N)NC(=O)[C@H](CCCCN)NC(=O)[C@H](C)NC(=O)[C@H](Cc1ccccc1)NC(=O)[C@H](CCC(=O)O)NC(=O)[C@H](CCC(=O)O)NC(=O)[C@H](CC(C)C)NC(=O)[C@@H](N)CO)C(C)C)C(C)C)C(C)C)[C@@H](C)CC)C(=O)N[C@@H](CO)C(=O)N[C@@H](CCC(=O)O)C(=O)N[C@@H](CCCNC(=N)N)C(=O)N[C@H](C(=O)N[C@H](C(=O)N[C@@H](CCC(=O)O)C(=O)N[C@H](C(=O)N[C@H](C(=O)N[C@@H](CC(C)C)C(=O)N[C@@H](CCCNC(=N)N)C(=O)N[C@@H](Cc1c[nH]cn1)C(=O)N[C@@H](C)C(=O)N[C@@H](C)C(=O)N[C@@H](CCC(N)=O)C(=O)N[C@H](C(=O)N[C@@H](CC(C)C)C(=O)N[C@@H](CCCCN)C(=O)O)[C@@H](C)O)C(C)C)[C@@H](C)CC)[C@@H](C)CC)[C@@H](C)CC |  |  | male mouse, plasma | intravenous, 1 mg/kg |  | MRT | 3.35 h |
| Cc1nnc(-c2ccc(CC(=O)NCCCC[C@H](NC(=O)c3ccc(OCc4ccc(B(O)O)cc4)c(-c4nc5ccccc5c(=O)[nH]4)c3)C(=O)NCC(=O)NCC(=O)NCC(=O)N[C@@H](Cc3ccccc3)C(=O)N[C@@H](Cc3ccccc3)C(=O)O)cc2)nn1 |  | UPLC-MS/MS | human serum | 100 µM, 1.5 h, 37 °C |  | remaining compound | 79.8% and 85.1% |
| COc1ccc(CNc2ccc3c(c2)S(=O)(=O)C=C3)cc1 |  |  | male C57BL/6 mice, blood | intraperitoneal, 10 mg/kg, day 8, group average |  | plateletcrit | 5.63 mL/L |
| Cc1nc2cccc(OCC(C)(C)C(=O)NC(C)C)c2c(N)c1C(=O)[O-].[Na+] | Escherichia coli | reverse mutation, plate incorporation | WP2 uvrA | 0.13 mg/plate, without S9 |  | revertant colonies | 31 ± 1 colonies/plate |
| CS(C)(=O)=Nc1ccc(-c2ccc(-c3nc4cc(O[C@@H]5CO[C@H]6[C@@H]5OC[C@H]6O)[nH]c4cc3F)cc2)cc1 | Tyrosine-protein kinase Lck (LCK, Homo sapiens, UniProt P06239) | enzyme activity, inhibitor |  | 10 µM |  | inhibition | 13% |
| C/C(=N\OCCCN1CCCCC1)c1ccc(C(F)(F)F)cc1 |  |  | rhesus monkey | dose not given, after dosing |  | QT interval | 160 ms |
| CC(=O)NCCCC[C@@H]1NC(=O)[C@H](Cc2c[nH]c3c(C)cccc23)NC(=O)[C@H]([C@@H](C)O)NC(=O)[C@H](CC(N)=O)NC(=O)[C@@H](NC(C)=O)C(C)(C)SSC(C)(C)[C@@H](C(=O)N[C@@H](Cc2ccc(OCCN)cc2)C(=O)N[C@@H](Cc2ccc3ccccc3c2)C(=O)NC2(C(=O)N[C@@H](CCC(=O)O)C(=O)N[C@@H](CC(N)=O)C(=O)N[C@@H](Cc3cccnc3)C(=O)N(C)CC(N)=O)CCOCC2)NC1=O |  |  | human, plasma | oral, 10 mg, single dose, healthy volunteers |  | CL/F | 7430 L/h |
| COc1ccccc1-c1n[nH]c2nc(NC3CCN(C(=O)Cc4ccc(F)cc4F)CC3)ncc12 |  | bead binding, competition bead pull-down, item: LINJ.35.5300 | Leishmania donovani axenic amastigote extract | 10 µM | baseline: vehicle | relative abundance | 1.07 |
| CN1Cc2cc(Cl)ccc2-n2c(nnc2C2CCN(c3cccc(F)n3)CC2)C1 |  |  | Sprague-Dawley rats male, brainstem | intravenous, 0.03 mg/kg, 60 min |  | concentration | 1.19 ± 0.24 ng/mL |
| C#Cc1c(F)ccc2cc(O)cc(-c3ncc4c(N5CC6CCC(C5)N6C(=O)OC(C)OC(=O)c5cccnc5)nc(OC[C@@]56CCCN5C[C@H](F)C6)nc4c3F)c12 (stereo partly drawn) |  | item: prodrug | mouse whole blood | 1 µM |  | t1/2 | 0.428 h |
| O=C1NC(=O)c2c1c1cc(F)c[n+]3c1c1c2c2cc(O)ccc2[n]1[Ru-4]312([N]=C=S)[S+]3CC[S+]1CC[S+]2CC3 (stereo not drawn) | Mast/stem cell growth factor receptor Kit (KIT, Homo sapiens, UniProt P10721) | enzyme activity |  | 100 nM, human enzyme, added: 10 µM ATP | baseline: untreated | remaining activity | 113% |
| CC(CCC(=O)NCC(=O)O)C1CCC2C3CCC4CC(OC5OC(C(=O)O)C(O)C(O)C5O)CCC4(C)C3CC(O)C12C (stereo not drawn) |  |  | men, C/C genotype, plasma | dose not given, geometric mean |  | glucuronide to parent ratio | 2.77 |
| CC[C@H](C)[C@H](NC(=O)[C@H](CCCCN)NC(=O)CNC(=O)[C@H](CC(C)C)NC(=O)[C@H](Cc1ccccc1)NC(=O)[C@H](CCCCN)NC(=O)[C@H](CO)NC(=O)[C@H](Cc1ccccc1)NC(=O)[C@H](Cc1c[nH]c2ccccc12)NC(=O)[C@H](CCC(N)=O)NC(=O)[C@@H](NC(=O)[C@H](Cc1ccccc1)NC(=O)CCCCCNC(=O)CN1CCN(CC(=O)O)CCN(CC(=O)O)CCN(CC(=O)O)CC1)C(C)C)C(=O)N[C@@H](CCC(=O)O)C(=O)N1CCC[C@H]1C(=O)N[C@@H](CC(=O)O)C(=O)N[C@H](C(=O)N[C@@H](CO)C(=O)N[C@@H](CCC(N)=O)C(=O)N[C@H](C(=O)N[C@@H](CCC(N)=O)C(=O)N[C@@H](CC(=O)O)C(=O)N1CCC[C@H]1C(=O)N[C@@H](CC(N)=O)C(=O)N[C@@H](CC(=O)O)C(=O)N[C@@H](CCC(N)=O)C(=O)N[C@@H](Cc1ccc(O)cc1)C(=O)N[C@@H](CCC(=O)O)C(=O)N1CCC[C@H]1C(=O)N[C@@H](Cc1ccccc1)C(=O)O)C(C)C)C(C)C [copper-64 labelled] |  |  | GZMB-/- mice, CT26 tumour-bearing, kidneys | 2 h, checkpoint inhibitor-treated |  | tissue uptake | 30.3 ± 4.5 %ID/g |
| CSCC[C@H](N)C(=O)N[C@@H](C)C(=O)N[C@@H](CCCNC(=N)N)C(=O)N[C@@H](CCCNC(=N)N)C(=O)N[C@@H](CC(=O)O)C(=O)N[C@@H](CCCCN)C(=O)N[C@H](C(=O)N[C@@H](CC(=O)O)C(=O)N[C@@H](Cc1ccccc1)C(=O)N[C@@H](C)C(=O)N[C@@H](CCCNC(=N)N)C(=O)N[C@@H](CCCNC(=N)N)C(=O)N[C@@H](CCCNC(=N)N)C(=O)N[C@@H](CCCNC(=N)N)C(=O)NCCCCCC(=O)NCCCCC(NC(=O)CCCCCNC(=O)[C@H](CCCNC(=N)N)NC(=O)[C@H](CCCNC(=N)N)NC(=O)[C@H](CCCNC(=N)N)NC(=O)[C@H](CCCNC(=N)N)NC(=O)[C@H](C)NC(=O)[C@H](Cc1ccccc1)NC(=O)[C@H](CC(=O)O)NC(=O)[C@@H](NC(=O)[C@H](CCCCN)NC(=O)[C@H](CC(=O)O)NC(=O)[C@H](CCCNC(=N)N)NC(=O)[C@H](CCCNC(=N)N)NC(=O)[C@H](C)NC(=O)[C@@H](N)CCSC)[C@@H](C)O)C(=O)NCCCCC(NC(=O)C(CCCCNC(=O)CCCCCNC(=O)[C@H](CCCNC(=N)N)NC(=O)[C@H](CCCNC(=N)N)NC(=O)[C@H](CCCNC(=N)N)NC(=O)[C@H](CCCNC(=N)N)NC(=O)[C@H](C)NC(=O)[C@H](Cc1ccccc1)NC(=O)[C@H](CC(=O)O)NC(=O)[C@@H](NC(=O)[C@H](CCCCN)NC(=O)[C@H](CC(=O)O)NC(=O)[C@H](CCCNC(=N)N)NC(=O)[C@H](CCCNC(=N)N)NC(=O)[C@H](C)NC(=O)[C@@H](N)CCSC)[C@@H](C)O)NC(=O)CCCCCNC(=O)[C@H](CCCNC(=N)N)NC(=O)[C@H](CCCNC(=N)N)NC(=O)[C@H](CCCNC(=N)N)NC(=O)[C@H](CCCNC(=N)N)NC(=O)[C@H](C)NC(=O)[C@H](Cc1ccccc1)NC(=O)[C@H](CC(=O)O)NC(=O)[C@@H](NC(=O)[C@H](CCCCN)NC(=O)[C@H](CC(=O)O)NC(=O)[C@H](CCCNC(=N)N)NC(=O)[C@H](CCCNC(=N)N)NC(=O)[C@H](C)NC(=O)[C@@H](N)CCSC)[C@@H](C)O)C(N)=O)[C@@H](C)O (stereo partly drawn) |  |  | C57BL/6 mouse female, spleen | dose not given, 6 h | baseline: total | mean tissue distribution | 1.19% |
| O=C(CN1CN(c2ccccc2)C2(CCN(C(=O)c3cnc4[nH]ncc4c3)CC2)C1=O)NCC(F)(F)F |  |  | PAMPA |  |  | Papp | 1.73 ×10⁻⁶ cm/s |
| O=C1NC2(CC2)COc2ncc(F)cc2[C@H]2COCCN2c2ccn3ncc1c3n2 |  |  | Sprague-Dawley rat, female, thymus | oral, 10 mg/kg/day, 4 weeks, end of treatment |  | organ-to-brain weight ratio | 31.1 ± 7.65% |
| NC1CCN(C(=O)Oc2ccc(C3CCCC4(C3)OOC3(O4)C4CC5CC(C4)CC3C5)cc2)CC1 (racemic) |  | shake flask | PBS | pH 7.4 |  | logD | 4.54 |
| N#[11C]c1ccc(-c2csc(NN=C3CCCC3)n2)cc1 |  |  | C57BL/6 mice, male, brain | intravenous, 3 MBq, 1 min |  | radioactivity uptake | 4.43 %ID/g |
| CC(C)[C@H]1NC(=O)C[C@H]2/C=C/CCSSC[C@@H](NC1=O)C(=O)N[C@H](Cc1cccc3ccccc13)C(=O)NCC(=O)O2 | Ribosomal protein S6 kinase alpha-5 (RPS6KA5, Homo sapiens, UniProt O75582) | enzyme activity, inhibitor |  | 10 µM |  | inhibition | 0.6% |
| C=CC(=O)Nc1cccc(Cn2ncc3cnc(Nc4cnn(CCOC)c4)nc32)c1 |  |  | Sprague-Dawley rat female, serum | oral, 180 mg/kg, day 28, 28-day subacute toxicity |  | serum albumin | 22 ± 4.97 g/L |
| Cc1ccc(NS(=O)(=O)c2c(C(=O)N3CCCCCC3)c(C)n(C)c2C)c(Cl)c1 | CV-1 |  | African green monkey cells | 0.412 µM, 60 (unit not given) |  | viability | 97.4% and 95.9% |
| CC(C)(C)C(=O)OCOP(=O)(OCOC(=O)C(C)(C)C)C1CCCN(O)C1=O (stereo not drawn) | Hs-578T |  |  |  |  | CC50 | > 100 µM |
| O=C(CN1CCN(CC(=O)NCP(=O)([O-])[O-])CCN(CC(=O)NCP(=O)([O-])[O-])CCN(CC(=O)NCP(=O)([O-])[O-])CC1)NCP(=O)([O-])[O-].[Gd+3] |  |  | Sprague-Dawley rats, blood | intravenous, 35 µmol/kg, two-compartment model, added: GdDTPA 68 µmol/kg co-injected |  | volume of distribution | 0.248 L/kg |
